Experimental data from different studies.
Numbered parts are unrelated; each lists some results of a single study.

Set 1
Target: Ras GTPase-activating protein-binding protein 1, C-terminal RGG region (G3BP1, Homo sapiens, UniProt Q13283)
Sequence of UniProt Q13283 (whole entry, looked up): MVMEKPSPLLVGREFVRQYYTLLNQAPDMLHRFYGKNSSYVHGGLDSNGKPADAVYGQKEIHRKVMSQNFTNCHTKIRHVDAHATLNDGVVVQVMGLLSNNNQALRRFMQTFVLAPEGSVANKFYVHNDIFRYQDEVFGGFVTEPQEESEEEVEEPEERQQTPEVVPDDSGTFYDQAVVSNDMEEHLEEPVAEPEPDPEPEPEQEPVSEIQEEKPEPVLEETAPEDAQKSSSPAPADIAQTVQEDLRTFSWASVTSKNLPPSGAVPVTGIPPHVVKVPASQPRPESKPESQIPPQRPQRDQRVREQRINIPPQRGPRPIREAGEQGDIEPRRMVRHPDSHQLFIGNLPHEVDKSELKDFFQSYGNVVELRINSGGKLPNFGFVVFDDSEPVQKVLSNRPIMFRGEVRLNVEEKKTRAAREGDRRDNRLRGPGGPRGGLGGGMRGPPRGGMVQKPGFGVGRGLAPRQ
Technique: RNA Bind-n-Seq
Form: RNA
Sample: in vitro
Concentration: 1 µM
Setting: whole 134-nt RNA, ends assumed
Together with: 150 mM KCl
Reference: input library
Direction: higher = stronger binding
For `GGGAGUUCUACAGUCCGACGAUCAAGUCCUGUGCUACACAUCGUAUGUACCGAAUCGGGAAAAGGGAAAAGGAAAAGGGAAAGUAUUAUGUUACGCCGUUCGGAUCUGCACUUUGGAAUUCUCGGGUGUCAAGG`, the log2 enrichment was -1.69.
`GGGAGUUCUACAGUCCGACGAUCUGUGCUACACAUCGUAUGUACCGAAUCGGGGUUUUUUUGGGGUUUUUUUGGUUUUUUUGGGGAAAGUAUUAUGUUACGCCGUUCGGAUCUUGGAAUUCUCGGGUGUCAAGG` has a log2 enrichment of -1.06.
For `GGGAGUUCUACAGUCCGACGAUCUCAAGUCCUGUGCUACACAUCGUAUGUACCGAAUCGGGUUUGGGUGGGUUUGGGAAAGUAUUAUGUUACGCCGUUCGGAUCUGCACUUCCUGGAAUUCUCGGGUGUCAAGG`, the log2 enrichment was 2.08.
`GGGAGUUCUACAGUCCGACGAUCGGAGGAAGUAAAAACAAAUGGAAAUGCUUCGGAUAGUGGCAGGGGUGGGGGUUGCUAAGGAAAGGGUGGGAUGGGAGUGGGUAAAGAGUUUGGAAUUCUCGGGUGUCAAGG` gave a log2 enrichment of 2.
`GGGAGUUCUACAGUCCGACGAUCACCAUGCAGGUGGGCAUCUAAAGGAAGUGGGGCAAGGGGGGGAUAGGGAGGGGGGUAACACUUUGGGAACAGGUGGUCCCAGGUCGUUUCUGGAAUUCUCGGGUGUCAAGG` has a log2 enrichment of -1.17.
For `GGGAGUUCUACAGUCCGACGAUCCUCAAGUCCUGUGCUACACAUCGUAUGUACCGAAUCGGGUGGGGUGGGGUGGGAAAGUAUUAUGUUACGCCGUUCGGAUCUGCACUUCCAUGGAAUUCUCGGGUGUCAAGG`, the log2 enrichment was 2.06.
`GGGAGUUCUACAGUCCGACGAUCUCAAGUCCUGUGCUACACAUCGUAUGUACCGAAUCGGAGGUUUUUUUGGUUUGGAAAGUAUUAUGUUACGCCGUUCGGAUCUGCACUUCCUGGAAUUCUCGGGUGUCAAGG` gave a log2 enrichment of -1.49.
`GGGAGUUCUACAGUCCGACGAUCCUGUGCUACACAUCGUAUGUACCGAAUCGGAAAAAAAGGGGAAAAAAAGGGGAAAAAAAGGGAAAGUAUUAUGUUACGCCGUUCGGAUCUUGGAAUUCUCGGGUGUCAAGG` gave a log2 enrichment of -1.1.
`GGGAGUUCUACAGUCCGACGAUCCUCAAGUCCUGUGCUACACAUCGUAUGUACCGAAUCGGUGGUUUUUUUGGAGGAAAGUAUUAUGUUACGCCGUUCGGAUCUGCACUUCCAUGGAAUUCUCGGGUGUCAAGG` has a log2 enrichment of -0.826.
With `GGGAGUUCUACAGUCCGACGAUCCAAGUCCUGUGCUACACAUCGUAUGUACCGAAUCGGAAAAGGGAAAAGGAAAAGGGAAAGUAUUAUGUUACGCCGUUCGGAUCUGCACUUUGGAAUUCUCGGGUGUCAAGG` the log2 enrichment was -2.08.

Set 2
Target: RING finger protein unkempt homolog, zinc fingers 1-6, GST-SBP tag (UNK, Homo sapiens, UniProt Q9C0B0, residues 30-357)
Sequence of UniProt Q9C0B0 (30-357, looked up): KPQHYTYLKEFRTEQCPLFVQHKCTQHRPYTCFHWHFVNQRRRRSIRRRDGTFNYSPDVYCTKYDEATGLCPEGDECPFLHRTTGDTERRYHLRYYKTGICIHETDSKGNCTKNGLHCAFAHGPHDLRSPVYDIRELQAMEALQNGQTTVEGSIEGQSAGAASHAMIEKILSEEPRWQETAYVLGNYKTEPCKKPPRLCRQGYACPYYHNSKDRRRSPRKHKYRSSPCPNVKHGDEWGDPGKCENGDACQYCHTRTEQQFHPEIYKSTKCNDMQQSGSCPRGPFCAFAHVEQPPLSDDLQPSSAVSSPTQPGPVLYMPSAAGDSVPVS
Technique: RNA Bind-n-Seq
Form: RNA
Sample: in vitro
Concentration: not given
Setting: RNA with constant flanks, human and mouse sites, ends assumed
Reference: input RNA pool
Direction: higher = stronger binding
`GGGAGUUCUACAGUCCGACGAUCAAGCUUACAGCCUCAGUGGCGAAAAUUUUUUCAUGUCAGAGACCGAGAACUCUUGCAGUCGUUUAUGUCAUCCCUUCUUCUCCAGACAGAAGAUACCAAAAAGUUGCAAUCAAAGAUCUCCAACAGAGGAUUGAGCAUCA` has a bound/input enrichment of 0.146 ratio.
The bound/input enrichment of `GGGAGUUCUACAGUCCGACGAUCGGCACCCAAGUGGAUGAGGGGGUUCGCUCAGCCAGCAAGCGCAUCGUGGCGCCCCCAGGCGGCCGUUCUAAUAUCACAUCUCUGAGUUAAGCAAGCCUUCCUCAAAGAGAGGGGCAGAAGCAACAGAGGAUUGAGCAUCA` is reported as 0.178 ratio.
The bound/input enrichment of `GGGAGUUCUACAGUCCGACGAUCAACAAGCUCGGUGUCACCAAUGCCAGCCUAGUCCUUUUCAGACCCGGGUCGGUGAGAGGAAUCAACGGAUCCGUCAGUCUGGCCGUACCACUGUGGCUGCUGGCAGCGUCCCUGUUCUGCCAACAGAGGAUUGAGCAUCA` is reported as 0.124 ratio.
`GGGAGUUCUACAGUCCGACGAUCCGCAUUUUGAUGGUUGGAUUGGAUGCUGCUGGCAAGACAACCAUUCUGUAUAAACUGAAGUUAGGGGAGAUAGUCACCACCAUUCCUACCAUUGGUUUUAAUGUGGAAACAGUAGAAUAUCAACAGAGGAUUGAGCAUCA` gave a bound/input enrichment of 0.68 ratio.
For `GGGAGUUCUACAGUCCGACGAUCUCUGAUCUCAAUGUGCCUGAGCAGCUGUAUCAGUACAUGGUUGGAGGCCAUAGGCGAUUUCAAACUGGAAUGCACAGGGAGAAACAUAAGUCUCCAAGUUAUCAGAUCAAAGAAGGAGACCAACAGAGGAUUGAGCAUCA`, the bound/input enrichment was 0.141 ratio.
`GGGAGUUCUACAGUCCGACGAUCUUUCCGAUGACCAUGGAUGAAAAAUAUGUAAACAGCAUUUGGGACCUUCUGAAAAAUGCAAUUCAAGAAAUCCAGCGUAAGAAUAACAGUGGUCUUAGUUUUGAGGAGCUCUAUAGAAAUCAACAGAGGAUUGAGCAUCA` gave a bound/input enrichment of 1.11 ratio.
The bound/input enrichment of `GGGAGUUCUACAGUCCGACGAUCGAUACAAAAAGGCUUUCCAAAGAGGAAAAGGGUCGCAGCAGUUGUGGUAGAAAUUUCUGGGUUAGUGGACUCUCUUCUACAACCAGAGCUACAGAUUUGAAGAAUCUUUUCAGCAAAUAUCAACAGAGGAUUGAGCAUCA` is reported as 0.267 ratio.
With `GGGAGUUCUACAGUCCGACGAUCCAUGAGCAGCUCAGACAGCAGCAGGAAGAGAUGAGGCAACUAAGGGAAUCCAUUGCUGAACACAAACCUCAUAUUGAUAAGAUACUAAAAAUAGGUCCACAACUAAAGGAGCUAAACCCUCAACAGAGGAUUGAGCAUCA` the bound/input enrichment was 0.268 ratio.
For `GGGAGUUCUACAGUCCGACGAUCCUAAAAAAGAGAAUAACAUGAAAACGCCCAGGGUUACUUGAAUGUUUUUAUAAGAUAGGAAUAUAUGUCUUCACCAUGGGGGGGGUCUCGAUUUCACUAACGUUGUAUAUGAAAAUGUCUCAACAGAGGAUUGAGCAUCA`, the bound/input enrichment was 0.642 ratio.
`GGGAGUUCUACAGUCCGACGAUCUUCUAAACCUUCCUCUGACCCCCCUUGUAUCAUUGAGAAACUGUGUUCCUUACAUGAUGGCCUAGUUUUGGAAGCAAAGGGGAUAAAGGAACAUUUCUGGAAACCCUAUAUUAGGAAACUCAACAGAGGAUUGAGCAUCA` has a bound/input enrichment of 0.486 ratio.
With `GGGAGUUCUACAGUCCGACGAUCAUCAGAGAGUCUGGCAAAGCAGACAGGGAUGGUGAUAAGAUGGCUCCUUCAGUUGAAAAAAAGAUUGCAGAGCUUGAAAUGGGACUCCUCCACCUGCAGCAGAACAUUGAGAUCCCAGAGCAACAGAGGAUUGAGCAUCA` the bound/input enrichment was 0.145 ratio.

Set 3
Target: Histone acetyltransferase KAT6A, both winged helices, GST fusion (KAT6A, Homo sapiens, UniProt Q92794, residues 1-181)
Technique: protein binding microarray
Form: double-stranded DNA, one strand shown
Sample: in vitro
Concentration: not given
Setting: 8-mer, flanks averaged, mean of 2 arrays, mostly near background
Reference: not given
Direction: higher = stronger binding
Residues (chain): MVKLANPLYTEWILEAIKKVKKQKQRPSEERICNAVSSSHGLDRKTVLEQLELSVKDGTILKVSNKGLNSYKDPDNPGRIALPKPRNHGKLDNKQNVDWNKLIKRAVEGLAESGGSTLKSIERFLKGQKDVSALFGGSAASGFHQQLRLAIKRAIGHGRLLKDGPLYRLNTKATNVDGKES
For `AATGCACA`, the E-score was 0.00392.
`AGGCTGAA` gave an E-score of -0.151.
`AGGAAAAC` has an E-score of -0.0127.
`CATACATG` has an E-score of -0.0532.
With `AGCCAAAT` the E-score was -0.109.
`ACGTCGAG` gave an E-score of -0.191.
`AACTGCCT` has an E-score of -0.212.
`CCATCTTC` has an E-score of -0.039.
For `ACCAAATG`, the E-score was -0.153.
For `CGACAAAG`, the E-score was -0.0233.
`CGGCCTGC` gave an E-score of 0.191.
With `AATTCTGA` the E-score was -0.0481.
For `AGGTACGA`, the E-score was -0.149.
`AGCGTGCA` gave an E-score of 0.0786.
`AAACTCAT` has an E-score of -0.0717.
`CCAGACCA` has an E-score of -0.189.
With `ACGAGAGA` the E-score was -0.101.
`ACAATTAA` has an E-score of -0.00837.
With `CTCTTCCC` the E-score was -0.06.
For `ACCTATCA`, the E-score was -0.0791.
`GCACTCAC` gave an E-score of -0.0118.
With `ACGCGGCA` the E-score was 0.326.
With `ACTAATAG` the E-score was -0.218.
`CAAGGCGG` has an E-score of 0.136.
`CGTACCGC` has an E-score of 0.275.

Set 4
Target: RNA binding protein fox-1 homolog 2, RRM domain, GST-SBP tag (RBFOX2, Homo sapiens, UniProt O43251-10, residues 100-194)
Technique: RNA Bind-n-Seq
Form: RNA
Sample: in vitro
Concentration: 365 nM
Setting: natural RNA segment, single round, ends assumed
Reference: no-protein control
Direction: higher = stronger binding
Construct (chain): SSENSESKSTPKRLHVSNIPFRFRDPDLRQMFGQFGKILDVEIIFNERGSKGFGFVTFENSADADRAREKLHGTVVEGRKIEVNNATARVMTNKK
`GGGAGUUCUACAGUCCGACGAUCGAGAAAGGAAAUGGGCUAUUGCCAAAGGACAGGUGGCGUUAGAUGGCUGUGAGGGUGACCUGGUGAGGGAAGGGUUGGAAUGAGCUGCUGCAGGAGGCCAAGGGAUGCCUUGGAAUUCUCGGGUGCCAA`: “RBNS enrichment (R)” 2.24.
`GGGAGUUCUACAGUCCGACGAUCAUGAACUGUAUUUUUACAAUGAUCGCCGCAUGACUAUUUCACACCCUUUUUAUACUCCAUAUCUGUCUUCCAGAAACGUCACCUGCCUUUCUCCUGUGGUCUCUUAAUCCUGGAAUUCUCGGGUGCCAA` — result for “RBNS enrichment (R)”: 0.983.
`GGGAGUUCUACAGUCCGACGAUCAAGGAGUGGGGCAGGAAGGGUCUCCCAGGCACGCUGUGCUCACCCCCAGGGCCACAUCUCAGCUCUCCAGCCCUGGAUUCUUUCCUGUCUUCAUUUUAUGAGUUGUUGCCUGGAAUUCUCGGGUGCCAA` — result for “RBNS enrichment (R)”: 0.584.
For `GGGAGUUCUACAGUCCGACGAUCCAACUCAUAGCCAAGGUGGUCUGAUCGUAGACAUUCCUUCCCUGCCCCAUGCGCUUGCCUCUCUCUCUCUCUCUCUCUCUCUUUCUCUCUCUCUCUCUCUCUCUCUCUCUUGGAAUUCUCGGGUGCCAA`, “RBNS enrichment (R)” read 1.49.
`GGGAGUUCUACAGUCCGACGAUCCCUAGAAUUUCUUUUAUAAAUGCUUUGUUUACAUUUUAGAUUGUAUCUGUCCUUAAUGUCAAAUGAUGAAUCCAGUUUGAAUCAGCUGUCAUUCCAAGCUAUCAUGCUCAUGGAAUUCUCGGGUGCCAA` — result for “RBNS enrichment (R)”: 0.604.
`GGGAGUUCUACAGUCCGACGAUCCUGCCGGGGAGGAGGGGCUCCUGGGCCUGCUUCCUCCAGGCGCUCUAGAUGCACAAUCCAAUACAGUGGCCUCGUGUGGCUGUAUAACUCGGUUCACUUCAGACUACGUGUGGAAUUCUCGGGUGCCAA`: “RBNS enrichment (R)” 0.348.
Under “RBNS enrichment (R)”, `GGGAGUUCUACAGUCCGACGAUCUGCUGCAGGCCAAGCUGGGUGUGGUAUUUAGGGCAGCUCAGCAGGGGGAACUUGUCCCCAUGGUCAGAGGAGACCCAGCUGUCCUGCACCCCCUUGCAGAUGAGUAUCACUGGAAUUCUCGGGUGCCAA` is recorded as 2.66.
`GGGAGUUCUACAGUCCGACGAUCCCCUCUCAGACCCACGCUCGCUCAGAGGCUCGUUGCUGGGCUGGCUUUGAGGGGCUGCUCUUCUCAUCUGGUGCCAAAAGUUCAUUUGCAGCUUCUACAACAAUCCCCACUGGAAUUCUCGGGUGCCAA`: “RBNS enrichment (R)” 0.447.
`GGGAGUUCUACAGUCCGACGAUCUUUUUUUUCUACUGAUCUACCCAAGUGUAGGUGAGCCGCAGCAGGGAGUGAUUCCUAGAAGACGGAUCAGUCUAGUCUGGCAGUCAAGGCUCAGGAGUUUGGGAGAGGGGUGGAAUUCUCGGGUGCCAA` — result for “RBNS enrichment (R)”: 0.429.
